Experimental data gathered from unrelated publications.
A part holds a random share of what one study measured. Substitutions count along the parent as printed.

Block 1
Target: Phosphate system positive regulatory protein PHO4, full length, GST-tagged (PHO4, Saccharomyces cerevisiae, UniProt P07270, residues 1-312)
Technique: competition protein-binding microarray
Form: double-stranded DNA, one strand shown
Sample: in vitro
Concentration: 2 µM
Notes: whole 60-bp probe, lowest competitor level
Together with: Cbf1 competitor, 0.05 µM
Reading: higher = stronger binding
Measurement: fluorescence intensity
Residues (chain): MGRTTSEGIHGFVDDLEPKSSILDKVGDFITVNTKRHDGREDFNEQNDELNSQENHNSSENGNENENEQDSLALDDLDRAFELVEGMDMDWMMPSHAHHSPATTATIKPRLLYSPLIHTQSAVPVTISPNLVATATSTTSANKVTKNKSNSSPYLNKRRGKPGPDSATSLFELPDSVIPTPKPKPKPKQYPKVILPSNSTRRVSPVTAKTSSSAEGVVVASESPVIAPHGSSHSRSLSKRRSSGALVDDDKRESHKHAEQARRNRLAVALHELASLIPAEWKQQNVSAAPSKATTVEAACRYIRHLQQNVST
CGGGGTTAAGTTTGCCACGTGTTTTGCTTGCAGCAGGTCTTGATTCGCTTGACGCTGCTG: 16600 a.u.
ACAGGTATCTGGGGCAACGTGGGCTTAAGATTAGCCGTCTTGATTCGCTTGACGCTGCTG: 15200 a.u.
TGCGCAACAACTTGTGCAGTGGGTGTATGTCTAGAAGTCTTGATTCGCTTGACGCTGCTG: 6080 a.u.
TGCGCAACAACTTGACCCGTGGGTGTATGTCTAGAAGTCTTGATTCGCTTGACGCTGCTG: 9610 a.u.
AGTGGGATCGTTCGTCACAGCGTCGATAGGGTAAGGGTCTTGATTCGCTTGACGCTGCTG: 3170 a.u.
CGATCTGGATATCACCACGCAGATCGACTCTTACATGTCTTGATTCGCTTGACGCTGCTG: 6800 a.u.
CATCCCAATAGAATCCACGTGGGTAAAAGCTACGGCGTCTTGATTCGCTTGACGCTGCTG: 17300 a.u.
CGTCCTAGTGATTGCCAAGTGGGTGCCATGAGGAAGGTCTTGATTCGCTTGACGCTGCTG: 7070 a.u.
CCTTTGCAGTAGCATCACATGAATCGCGAAAGTCTAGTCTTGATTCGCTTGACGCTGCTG: 5060 a.u.
CTTTCCCGATCTTGAGAAGTGGGTGTAGCACATTTGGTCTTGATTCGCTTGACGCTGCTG: 4400 a.u.
CGTTTCCTGGGAAATCACGTGCTCTGTCATTGAATTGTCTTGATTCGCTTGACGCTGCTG: 17200 a.u.
AAATTACTAAGTTTTCACGTGGAATACCCCGTATGAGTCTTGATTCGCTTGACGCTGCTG: 12600 a.u.
CTTCTGTAAATTTGGCGAGTGGGTGGACGCGCCCCGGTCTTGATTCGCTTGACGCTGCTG: 4510 a.u.
CTTTCCCGATCTTGTCACTTTACTTTAGCACATTTGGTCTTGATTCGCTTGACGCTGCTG: 3470 a.u.
AAATTACTAAGTTGCAGAGTGGGTGACGCCGTATGAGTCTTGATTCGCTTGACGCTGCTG: 3790 a.u.
GGGGACACCAGTTATCATGTTGTCAACCAAAGACTTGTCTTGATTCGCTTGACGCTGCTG: 4150 a.u.
ACCAAGACTAACGGCCACGCTGCACCAACCACCAAGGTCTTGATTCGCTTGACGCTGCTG: 8550 a.u.
CTAACGAAGGTTTGGGGAGTGGGTGACAAGCCAAGTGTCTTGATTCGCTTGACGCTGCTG: 4670 a.u.

Block 2
Target: CCNA1, cyclin fold, Cln2 fusion (human)
Technique: yeast growth competition, sequencing
Sample: yeast
Notes: weak parent motif
Baseline: not given
Reading: higher = stronger binding
Measurement: normalised enrichment score
Starting sequence: CDKN1B docking peptide (human); PSACRNLFGPVDH; partner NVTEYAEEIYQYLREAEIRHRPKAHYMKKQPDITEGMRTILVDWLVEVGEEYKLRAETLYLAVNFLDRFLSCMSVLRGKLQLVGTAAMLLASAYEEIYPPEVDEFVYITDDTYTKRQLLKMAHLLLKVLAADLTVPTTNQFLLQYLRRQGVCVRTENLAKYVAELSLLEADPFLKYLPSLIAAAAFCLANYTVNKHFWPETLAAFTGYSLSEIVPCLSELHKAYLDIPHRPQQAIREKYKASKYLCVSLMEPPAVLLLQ
S2Y: -0.00743
P1S: 0.118
P10G: 0.348
C4D: 0.283
N6D: 0.235
C4V: 0.073
S2W: 0.118
N6W: 0.326
L7R: 0.201
G9S: 0.15
R5W: 0.209
P10R: 0.409
P10K: 0.312
S2N: 0.183
F8Q: 0.332
P1K: 0.48
C4W: 0.379
P10C: 0.204
V11C: 0.202
R5S: 0.0561

Block 3
Target: Prothrombin, mature alpha-thrombin (F2, Homo sapiens, UniProt P00734)
Technique: aptamer microarray, sandwich
Form: DNA with 2'F-ANA
Sample: in vitro
Concentration: 200 nM
Notes: whole 15-mer aptamer, many near background
Together with: Cy3 exosite-II aptamer, 400 nM
Reading: higher = stronger binding
Measurement: mean fluorescence intensity
Strand: GGTTGGTGTGGTTGG
2'F-ANA at 7 10 13 14 15: 122 a.u.
2'F-ANA at 2 4 5 6 9 12: 165 a.u.
2'F-ANA at 1 6 8 9 10 11 12 13 15: 63.7 a.u.
2'F-ANA at 2 3 5 6 9 10 11 12 13 15: 54.2 a.u.
2'F-ANA at 3 4 5 6 9 10 11 15: 55.4 a.u.
2'F-ANA at 2 3 5 6 8 10 12 13 14: 86 a.u.
2'F-ANA at 5 7 10 11 13 15: 47.9 a.u.
2'F-ANA at 4 5 7 8 9 10 14: 58.2 a.u.
2'F-ANA at 1 2 3 4 5 6 7 12 13: 87.3 a.u.
2'F-ANA at 1 3 4 6 8 11 12 13 15: 247 a.u.
2'F-ANA at 1 3 4 7 8 10 12 13: 77.2 a.u.
2'F-ANA at 2 3 4 7 8 9 10 11 12 13 14: 165 a.u.
2'F-ANA at 2 3 7 9 10 12 13 15: 408 a.u.
2'F-ANA at 4 6 7 8 10 11 13 15: 67.7 a.u.
2'F-ANA at 4 5 8 9 10 11 12 13: 49.8 a.u.
2'F-ANA at 1 3 6 9 11 13 14 15: 73.7 a.u.
2'F-ANA at 1 3 4 7 10 12 14: 54.3 a.u.
2'F-ANA at 1 2 3 4 5 6 7 11 12: 88.3 a.u.
2'F-ANA at 4 5 8 11 12 14: 45.8 a.u.
2'F-ANA at 2 3 4 6 7 11 12 13 15: 491 a.u.
2'F-ANA at 1 2 8 9 11 12 13 14: 63.9 a.u.

Block 4
Target: ABI1, truncated, D143A, DHFR fusion (Arabidopsis thaliana)
Technique: DHFR PCA, deep sequencing
Sample: yeast
Notes: methotrexate growth selection, single substitutions
Together with: (+)-ABA 58 µM
Baseline: wild-type fitted maximum
Reading: higher = stronger binding
Measurement: relative binding score
Starting sequence: PYL1, truncated, DHFR fusion (Arabidopsis thaliana); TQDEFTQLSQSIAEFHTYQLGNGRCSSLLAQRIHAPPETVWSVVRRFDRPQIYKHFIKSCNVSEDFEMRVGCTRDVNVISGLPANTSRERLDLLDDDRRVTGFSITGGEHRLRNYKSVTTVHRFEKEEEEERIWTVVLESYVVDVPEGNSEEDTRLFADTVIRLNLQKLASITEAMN
Y115P: -3.96%
C72F: 61.4%
Y141C: 16.6%
V40K: -9.86%
A30L: 88.2%
L28K: 57%
E125C: 96.4%
L82F: 41.1%
H55K: 92.3%
V44F: -9.94%
T39F: 74.9%
I105Y: -6.16%
S140W: 5.55%
R99D: -2.03%
E147C: 75.7%
L91Y: -1.51%
L112V: 12.2%
V142Q: 77.5%
G108H: 0.477%
G21I: 87.4%
A35G: 48.6%
R163Y: 18.5%
A35L: -7.46%
A175L: 74.2%
G102D: -17.6%

Excerpt of the above (block 4):
A30L: 88.2%
R163Y: 18.5%
C72F: 61.4%
V44F: -9.94%
E125C: 96.4%
A175L: 74.2%
